Measurements from different studies.
Each line is one published result; not all experiments were run side by side. “And” joins repeats or separate records; there may be more than shown. ± marks the error that the study gave.

COc1ccc(Nc2nc(Nc3ccc(OCCOCC[18F])cc3)ncc2Br)cc1  tissue uptake (ICR mice, S180 tumour, intestine; intravenous, 370 kBq, 60 min): 4.33 ± 0.09 %ID
C[N+](C)(CCOCCOCCOCCNC(=S)Nc1ccc(C[C@H]2CN(CC(=O)[O-])CCN(CC(=O)[O-])CCN2CC(=O)[O-])cc1)C[c-]1cccc1.[64Cu+2].[Fe+2].c1cc[cH-]c1  tissue uptake (measured: kidney; nude mice, BxPC-3 tumour; 8 h, pretargeting, 72 h lag): 0.4 %ID/g
CC[C@H](C)[C@H](NC(=O)C[C@H](NC(=O)CN1CCN2CCN(CC1)CC(=O)[O][Al]([18F])[O]C(=O)C2)C(=O)O)C(=O)N[C@H]1CCc2cccc3c2N(C1=O)[C@H](C(=O)NCc1cn[nH]n1)C3  tissue uptake (C57BL/6J mice, MC-38 tumour, anti-PD-1 treated, intestine; 0.5 h): 0.8 ± 0.24 %ID/g
CC(C)c1noc(C2CCN(c3ncnc(Nc4ccc(OCC[18F])cc4)c3[N+](=O)[O-])CC2)n1  tissue uptake (ex vivo biodistribution after PET; C57BL/J male mice, heart; 60 min): 1.21 ± 0.15 %ID/g
N#C[C@@H]1CCCN1C(=O)CNC(=O)c1ccnc2ccc(OCCCN3CCN(C(=O)CCc4ccc(O)c(CN5CCN6CC(=O)[O][Al-]([18F])([O]C(=O)C5)[O]c5ccc(CCC(=O)N7CCN(CCCOc8ccc9nccc(C(=O)NCC(=O)N%10CCC[C@H]%10C#N)c9c8)CC7)cc5C6)c4)CC3)cc12 (some centres unmarked)  tissue uptake (BALB/c nude mice, U-87 MG xenograft, blood; 1 h, blocking, added: DOTA-FAPI-04 40 nmol/mouse co-injected): 7.11 ± 1.85 %ID/g
N#C[C@@H]1CC(F)(F)CN1C(=O)CNC(=O)c1ccnc2c(NC(=O)[C@H](CCCCNC(=O)CCOCCOCCOCCOCCOCCOCCNC(=O)CN3CCN(CC(=O)[O-])CCN(CC(=O)[O-])CCN(CC(=O)[O-])CC3)NC(=O)CCCc3ccc(I)cc3)cccc12.[177Lu+3]  tissue uptake (biodistribution; U-87 MG tumour-bearing mice, tumor; 48 h): 4.83 ± 0.24 %ID/g
O=C([O-])CN1CCN(CC(=O)[O-])CCN(CC(=O)NC[C@H]2CC[C@H](C(=O)N[C@H](Cc3cnc4ccccc4c3)C(=O)NCCCC[C@H](NC(=O)N[C@@H](CCC(=O)O)C(=O)O)C(=O)O)CC2)CCN(CC(=O)[O-])CC1.[64Cu+2]  tissue uptake (ex vivo gamma counting; 22Rv1 tumour-bearing mice, blood; intravenous, 0.74 MBq, 1 h post-injection): 2.4 %ID/g
CCCC[C@H](NC(=O)CCCCCCCNC(=O)CN1CCN(CC(=O)O)CCN(CC(=O)O)CC1)C(=O)N[C@H]1CC(=O)NCCCC[C@@H](C(N)=O)NC(=O)[C@H](Cc2c[nH]c3ccccc23)NC(=O)[C@H](CCCNC(=N)N)NC(=O)[C@@H](Cc2ccccc2)NC(=O)[C@H](Cc2c[nH]cn2)NC1=O [fluorine-18 labelled]  tissue uptake (C57 mice B16-F10 melanoma, lung; intravenous, 0.37 MBq, 2 h): 0.71 ± 0.19 %ID/g
CC(C)C[C@H](NC(=O)[C@@H](CCCCNC(=O)[C@@H](Cc1ccccc1)NC(=O)CCCCCCCNC(=O)CN1CCN(CC(=O)O)CCN(CC(=O)O)CCN(CC(=O)O)CC1)NC(=O)[C@H](Cc1ccc(O)cc1)NC(=O)[C@H](CO)NC(=O)[C@H](Cc1c[nH]c2ccccc12)NC(=O)[C@H](Cc1c[nH]cn1)NC(=O)[C@@H]1CCC(=O)N1)C(=O)N[C@@H](CCCNC(=N)N)C(=O)N1CCC[C@H]1C(=O)NCC(N)=O [indium-111 labelled]  tissue uptake (biodistribution; male athymic nude mice, DU-145 prostate cancer xenograft, brain; intravenous, 0.037 MBq, 1 h post-injection): 0.11 ± 0.05 %ID/g
Cc1cc(C)n(CCN(CCN)CCCCCCNC(=O)[C@@H](N)Cc2c[nH]cn2)n1.[99Tc+].[C-]#[O+].[C-]#[O+].[C-]#[O+]  tissue uptake (BALB/c nude mice, MCF7 xenograft, pancreas; intravenous, 15 min): 0.71 ± 0.32 %IA/g
O=C(NCC1OC2CCC=CCCC2O1)c1ccc([18F])nc1 (centres unmarked)  tissue uptake (female BALB/c nude mice, LS174T tumour, muscle; intravenous, 60 min, added: CC49-tetrazine 24 h before): 0.6 ± 0.3 %ID/g
COc1ccc2c(c1)C(C)(C)C(/C=C/C1=C(Oc3ccc(C(=O)NCCCCOc4cc(CN(Cc5ccccn5)Cc5ccccn5)cc(CN(Cc5ccccn5)Cc5ccccn5)c4)cc3)C(=C/C=C3/N(CCCCS(=O)(=O)[O-])c4ccc(OC)cc4C3(C)C)CCC1)=[N+]2CCCCS(=O)(=O)[O-].O=[N+]([O-])[O-].O=[N+]([O-])[O-].[99Tc+].[C-]#[O+].[C-]#[O+].[C-]#[O+].[Zn+2]  tissue uptake (BALB/c mice, healthy, gall bladder; 12 h post-injection): 7.04 %ID/g and 12 %ID/g and 5.4 %ID/g and 37.9 %ID/g
COc1ccc(Nc2nc(Nc3ccc(OCCOCCOCC[18F])cc3)ncc2Br)cc1  tissue uptake (ICR mice, S180 tumour, intestine; intravenous, 370 kBq, 30 min): 4.62 ± 0.04 %ID
O=C(NCC1OC2CCC=CCCC2O1)c1ccc(COCCOCCOCC[18F])cc1 (centres unmarked)  tissue uptake (healthy female BALB/c nude mice, pancreas; intravenous, 7.4 MBq per mouse, 15 min): 2.5 ± 0.1 %ID/g
CC(=O)N([O-])CCCCCNC(=O)CCC(=O)N([O-])CCCCCNC(=O)CCC(=O)N([O-])CCCCCN.[89Zr+4]  tissue uptake (gamma counting; healthy Balb/c mice, muscle; intravenous, 4 h, 89Zr-labelled complex): 0.03 ± 0.02 %ID/g
N[C@H](CSC(F)(F)[18F])C(=O)O  tissue uptake (Kunming mice, turpentine inflammation, brain; intravenous, 0.74 MBq, 60 min): 0.91 ± 0.08 %ID/g
Cc1nc(N)nc2c1C(=O)N[C@@H](c1ccc(F)cc1-c1cccc(OCC[18F])n1)C2  tissue uptake (ex vivo biodistribution; C57BL/6 mice, muscle; intravenous, 1 MBq, 30 min): 31.8 ± 1.1 %ID
CN(O)C(=O)CCC(=O)NCCCN(CCCCN(CCCNC(=O)CCC(=O)N(C)O)C(=O)CCC(=O)N(C)O)C(=O)CCC(=O)N(C)O.[89Zr]  tissue uptake (gamma counting; healthy Balb/c mice, plasma; intravenous, 4 h, 89Zr-labelled complex): 0.01 %ID/g
CCCC[C@H](NC(=O)CNC(=O)CNC(=O)[C@H](CCCCNC(=O)[C@H](CC(=O)O)NC(=O)C(C)c1ccc(CC(C)C)cc1)NC(=O)CN1CCN(CC(=O)O)CCN(CC(=O)O)CCN(CC(=O)O)CC1)C(=O)N[C@H]1CC(=O)NCCCC[C@@H](C(N)=O)NC(=O)[C@H](Cc2c[nH]c3ccccc23)NC(=O)[C@H](CCCNC(=N)N)NC(=O)[C@@H](Cc2ccccc2)NC(=O)[C@H](Cc2c[nH]cn2)NC1=O (some centres unmarked) [lutetium-177 labelled]  tissue uptake (C57 mice, tumour-bearing, kidneys; intravenous, 0.037 MBq, 4 h): 13.5 ± 1.42 %ID/g
CCCC[C@H](NC(=O)COCCOCCNC(=O)CN1CCN(CC(=O)O)CCN(CC(=O)O)CC1)C(=O)N[C@H]1CC(=O)NCCCC[C@@H](C(N)=O)NC(=O)[C@H](Cc2c[nH]c3ccccc23)NC(=O)[C@H](CCCNC(=N)N)NC(=O)[C@@H](Cc2ccccc2)NC(=O)[C@H](Cc2c[nH]cn2)NC1=O [fluorine-18 labelled]  tissue uptake (C57 mice B16-F10 melanoma, stomach; intravenous, 0.37 MBq, 2 h): 0.35 ± 0.14 %ID/g

A few entries again:
COc1ccc(Nc2nc(Nc3ccc(OCCOCCOCC[18F])cc3)ncc2Br)cc1  tissue uptake (ICR mice, S180 tumour, intestine; intravenous, 370 kBq, 30 min): 4.62 ± 0.04 %ID
